# Published values from different studies.
# Lines come from different studies, so protocols differ. Numbers after ± are the reported error.
# Aryl hydrocarbon receptor: Aryl hydrocarbon receptor (Danio rerio, UniProt Q9YGV3)
SMILES,target,assay,test system,conditions,how to read,quantity,value
CC[C@@H]1[C@H](F)C(=O)N[C@@H]1COc1nccc2cc(C(N)=O)c(OC)cc12,"Serine-protein kinase ATM (ATM, Homo sapiens, UniProt Q13315)","ATP-site probe binding, ActivX profiling",THP-1 cell lysate,0.04 mM,,inhibition,-2.1%
Cc1cccc2c1ccc1cc(C(C)C)ccc12,Aryl hydrocarbon receptor,"reporter gene, agonist, luciferase reporter",ZF-4,123.5 µM,relative to: vehicle control,fold change,1.48
C[C@@H]1CCN(c2nccc(-c3cnn4ncccc34)n2)C1,"Tyrosine-protein kinase ABL1 (ABL1, Homo sapiens, UniProt P00519, Q252H)",KINOMEscan,,1 µM,,remaining binding,98%
Nc1nnc(-c2ccccc2O)cc1N1CCN(Cc2ccc(OCCOCCNc3cccc4c3C(=O)N(C3CCC(=O)NC3=O)C4=O)c(F)c2)CC1 (stereo not drawn),"SWI/SNF-related matrix-associated actin-dependent regulator of chromatin subfamily A member 2 (SMARCA2, Homo sapiens, UniProt P51531)",immunohistochemistry,"mouse, NCI-H2126 xenograft, tumour",dose not given,relative to: vehicle,reduction in positive cells,46%
CCCC(CCC)c1nc2c(Nc3ccc(C#CCCCCCCCCN)cc3)nc3ccccc3c2[nH]1,"Alpha-1D adrenergic receptor (ADRA1D, Homo sapiens, UniProt P25100)",PDSP screening,,,,off-target affinity,inactive
O=C(Nc1cccc2[nH]ccc12)c1ccc(F)cc1,"Alpha-synuclein (SNCA, Homo sapiens, UniProt P37840)",ThT kinetics,,"concentration not given, together with: SNCA 2 µM",,fibril formation,inhibited
CCCCCCCCCCCCC/C=C/[C@@H](O)[C@H](CO)NC(=O)CCCCCCCCCCCCCCCCCCCCCCC,"Protein SET (SET, Homo sapiens, UniProt Q01105)","lipid binding, GFP pull-down LC-MS/MS",A549 overexpressing GFP-tagged protein,unit not given,relative to: vector-transfected cells,bound endogenous lipid,2.8
CC[C@H](C)[C@H](NC(=O)[C@H](CCCNC(=N)N)NC(=O)[C@H](Cc1c[nH]cn1)NC(=O)[C@H](CCCNC(=N)N)NC(=O)[C@H](CC(=O)O)NC(=O)[C@H](CC(=O)O)NC(=O)[C@@H](NC(=O)[C@H](CC(=O)O)NC(=O)[C@@H]1CCCN1C(=O)[C@@H](N)CC(C)C)[C@@H](C)O)C(=O)N[C@@H](CCC(=O)O)C(=O)N[C@@H](CCC(=O)O)C(=O)N[C@@H](CCCCN)C(=O)N[C@@H](CCCNC(=N)N)C(=O)N[C@@H](CCCCN)C(=O)N[C@@H](CCCNC(=N)N)C(=O)N[C@H](C(=O)N[C@@H](Cc1ccc(O)cc1)C(=O)N[C@@H](CCC(=O)O)C(=O)N[C@H](C(=O)N[C@@H](Cc1ccccc1)C(=O)N[C@@H](CCCCN)C(=O)N[C@@H](CO)C(=O)N[C@@H](C)C(=O)N[C@@H](CCSC)C(=O)N[C@@H](CCCCN)C(=O)N[C@@H](CCCCN)C(=O)N[C@@H](CO)C(=O)N1CCC[C@H]1C(=O)N[C@@H](Cc1ccccc1)C(=O)N[C@@H](CC(N)=O)C(=O)NCC(=O)N1CCC[C@H]1C(=O)O)[C@@H](C)O)[C@@H](C)O,"NF-kappa-B inhibitor alpha (Homo sapiens, UniProt P25963)","binding, ITC",,"pH 7.5, 293 K, 50 mM NaCl",,-TΔS,-1.1 ± 0.01 kcal/mol
NCCCCC(=O)O,"Sodium- and chloride-dependent taurine transporter (SLC6A6, Homo sapiens, UniProt P31641, Y138A)","binding, microscale thermophoresis",,"37.6 nM, fitted curve",higher = more binding,fraction bound,0
Cc1nc(CSc2nc(SCc3ccc(C(C)C)cc3)nc(=O)[nH]2)cs1,"DNA topoisomerase 2-alpha (TOP2A, Homo sapiens, UniProt P11388)",DNA cleavage,,"15.6 µM, replicate 2",,linear DNA,0%
CN1C(=O)/C(=C2\Nc3ccccc3\C2=N/O)c2ccc(Br)cc21,Aryl hydrocarbon receptor,"reporter gene, agonist, luciferase reporter",ZF-4,20 µM,relative to: vehicle control,fold change,23.9
CN1C(=O)CCC(N2C(=O)c3cccc(N)c3C2=O)C1=O (stereo not drawn),"Sal-like protein 4 (SALL4, Homo sapiens, UniProt Q9UJQ4)","degrader, immunofluorescence",C33,,,Dmax,inactive
CC1(C)CC2(C)OC(=O)NC2(C)c2ccccc21 (stereo not drawn),"Huntingtin (HTT, Homo sapiens, UniProt P42858)","binding, affinity selection mass spectrometry",,,relative to: other proteins in batch,fold enrichment,1.75
CC[C@H](C)[C@@H]1NC(=O)[C@H](C)NC(=O)[C@H]([C@@H](C)CC)NC(=O)[C@H](CCC(N)=O)NC(=O)[C@H](C)NC(=O)[C@H](CCCNC(=N)N)NC(=O)[C@H](C(C)C)NC(=O)[C@H](CC(C)C)NC(=O)[C@H](CCC(=O)O)NC(=O)[C@H](CCCNC(=N)N)NC(=O)CNC(=O)[C@@H](NC(=O)[C@H](CC(C)C)NC(=O)[C@H](CCCCN)NC(=O)[C@@H](NC(=O)[C@@H](NC(=O)[C@H](CCC(=O)O)NC(=O)[C@H](CCC(=O)O)NC(=O)[C@H](CCSC)NC(=O)[C@H](Cc2c[nH]c3ccccc23)NC(=O)[C@H](CO)NC(=O)[C@@H](N)CC(=O)O)C(C)C)[C@@H](C)CC)CSSC[C@@H]2NC(=O)[C@@H](NC(=O)[C@H](CCCCN)NC(=O)[C@H](CC(N)=O)NC(=O)[C@H](C)NC(=O)[C@H](CC(C)C)NC(=O)[C@H](C)NC(=O)[C@H](CO)NC(=O)[C@H](Cc3ccc(O)cc3)NC(=O)[C@H](CC(C)C)NC(=O)[C@H](CCC(N)=O)NC(=O)c3ccc(-c4c5ccc(=[N+](C)C)cc-5oc5cc(N(C)C)ccc45)c(C(=O)[O-])c3)CSSC[C@H](NC(=O)CNC(=O)[C@H](C(C)C)NC(=O)[C@H](Cc3c[nH]cn3)NC2=O)C(=O)N[C@@H]([C@@H](C)O)C(=O)N[C@@H](CCCCN)C(=O)N[C@@H](CCCNC(=N)N)C(=O)N[C@@H](CO)C(=O)N[C@@H](CC(C)C)C(=O)N[C@@H](C)C(=O)N[C@@H](CCCNC(=N)N)C(=O)N[C@@H](Cc2ccccc2)C(=O)N[C@H](C(=O)O)CSSC[C@@H](C(=O)NCC(=O)N[C@@H](CCSC)C(=O)N[C@@H](CO)C(=O)N[C@H](C(=O)N[C@@H](Cc2c[nH]c3ccccc23)C(=O)N[C@@H](CO)C(=O)O)[C@@H](C)O)NC1=O,"Relaxin receptor 1 (RXFP1, Homo sapiens, UniProt Q9HBX9, F76A/Y80A)",NanoBRET dissociation,,"infinite dilution, together with: 100 nM relaxin",,koff slow phase,0.000764 s⁻¹
O=C(O)c1ccc(Nc2ncc3c(n2)-c2ccc(Cl)cc2C(c2c(F)cccc2F)=NC3)cc1,ASK1(h),kinase activity,,1 µM,,remaining activity,120%

# Some of these lines once more:
SMILES,target,assay,test system,conditions,how to read,quantity,value
CN1C(=O)CCC(N2C(=O)c3cccc(N)c3C2=O)C1=O (stereo not drawn),"Sal-like protein 4 (SALL4, Homo sapiens, UniProt Q9UJQ4)","degrader, immunofluorescence",C33,,,Dmax,inactive
